Measurements gathered from unrelated publications.
Parts stem from different laboratories: compare values within a part only. Positions count from the first letter of the parent shown.

Block 1
Target: Interferon regulatory factor 7, full length, phosphomimetic (IRF7, Homo sapiens, UniProt Q92985, residues 1-503, S101K/S471D/S472D/S475D/S476D/S477D/S483D/S484D/S487D)
Technique: protein-binding microarray
Form: double-stranded DNA, one strand shown
Matrix: in vitro
Tested at: 250 nM
Notes: 60-bp whole probe
With: salmon DNA 0.4 mg/ml
Baseline: random background probes
Direction: higher = stronger binding
All sequences stand within: GCCTAGCAC … GTCTTGATTCGCTTGACGCTGCTG
Residues (chain): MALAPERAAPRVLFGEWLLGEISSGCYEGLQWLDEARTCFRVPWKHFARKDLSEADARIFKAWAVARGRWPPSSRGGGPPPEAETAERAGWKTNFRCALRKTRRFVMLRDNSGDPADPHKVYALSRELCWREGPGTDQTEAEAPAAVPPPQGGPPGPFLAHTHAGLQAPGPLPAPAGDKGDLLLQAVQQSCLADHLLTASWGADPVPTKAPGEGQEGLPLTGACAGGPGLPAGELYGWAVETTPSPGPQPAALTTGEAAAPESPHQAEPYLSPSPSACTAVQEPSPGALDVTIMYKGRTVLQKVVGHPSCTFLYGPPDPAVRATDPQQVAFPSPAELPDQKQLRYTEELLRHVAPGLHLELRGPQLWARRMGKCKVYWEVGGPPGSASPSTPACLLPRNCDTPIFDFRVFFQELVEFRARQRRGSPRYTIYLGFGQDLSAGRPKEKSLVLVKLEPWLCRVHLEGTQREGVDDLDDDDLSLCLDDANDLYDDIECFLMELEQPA
With `TTAGAATTCGGGTATCGATTAGTGCTA` the log fluorescence was 0.738 z-score.
`TTAGGTATCGGCCTCGGTTAGTGCTAG` gave a log fluorescence of 0.229 z-score.
The log fluorescence of `GACAGTATCGGACTGGGGACGTGCTAG` is reported as -0.294 z-score.
With `CAAGTGATGTAGCTGGGAGCGTGCTAG` the log fluorescence was -0.939 z-score.
`GACGGTTTCCTTTCCTTGACGTGCTAG` has a log fluorescence of 4.49 z-score.
`GACTATCTCAGTCTCGAGACGTGCTAG` has a log fluorescence of 0.981 z-score.
With `GACGGACTGGACTCTCGGGACGTGCTA` the log fluorescence was -0.959 z-score.
`TTAGGTTTCCTTATGCTTTAGTGCTAG` has a log fluorescence of 2.11 z-score.
`GACGGTATAGGTCTCGGGACGTGCTAG` has a log fluorescence of -0.182 z-score.
`TTAGGTATCGACTATCGTTTAGTGCTA` gave a log fluorescence of 0.47 z-score.
`TTGGATTTCAGTTTCGATTAGTGCTAG` gave a log fluorescence of 9.08 z-score.
`AACGGTATCGGTATCGGGACGTGCTAG` has a log fluorescence of 1.53 z-score.
For `TCATTTCCCACTTTCACACTGTGCTAG`, the log fluorescence was 5.19 z-score.
For `TTAGGTCTCGTTTTCGGTTAGTGCTAG`, the log fluorescence was 8.17 z-score.
For `TTAGGACTGAGTATCGATTAGTGCTAG`, the log fluorescence was 0.665 z-score.
For `TGAGGTTTCGACACTGGGTTAGTGCTA`, the log fluorescence was 3.16 z-score.
`CACGGTTTCGACTTTCGGGACGTGCTA` gave a log fluorescence of 11.4 z-score.

Block 2
Target: CCNA1, cyclin fold, Cln2 fusion (human)
Technique: yeast growth competition, sequencing
Matrix: yeast
Notes: weak parent motif
Baseline: not given
Direction: higher = stronger binding
Starting sequence: RB1 docking peptide (human); PKPLKKLRFDIEG
`PKPLKKLRFDQEG [I11Q]` — result for “normalised enrichment score”: 0.176.
For `PKPQKKLRFDIEG [L4Q]`, “normalised enrichment score” read -0.0147.
`PKPLKKHRFDIEG [L7H]` — result for “normalised enrichment score”: 0.287.
`PKPAKKLRFDIEG [L4A]` — result for “normalised enrichment score”: 0.393.
`PKPLKSLRFDIEG [K6S]`: “normalised enrichment score” 0.415.
Under “normalised enrichment score”, `PKPLKKYRFDIEG [L7Y]` is recorded as -0.06.
`PKPEKKLRFDIEG [L4E]` — result for “normalised enrichment score”: 0.429.
For `PLPLKKLRFDIEG [K2L]`, “normalised enrichment score” read 0.423.
Under “normalised enrichment score”, `PYPLKKLRFDIEG [K2Y]` is recorded as 0.457.
Under “normalised enrichment score”, `PTPLKKLRFDIEG [K2T]` is recorded as -0.121.
`PKPLKKLRFDGEG [I11G]`: “normalised enrichment score” 0.262.
`PKPLKKLRGDIEG [F9G]` — result for “normalised enrichment score”: 0.365.
`PKPLKKLFFDIEG [R8F]`: “normalised enrichment score” 0.378.
`PKPLKKLDFDIEG [R8D]` — result for “normalised enrichment score”: 0.0136.
For `PQPLKKLRFDIEG [K2Q]`, “normalised enrichment score” read 0.183.
For `PKPLKKLRFCIEG [D10C]`, “normalised enrichment score” read 0.0889.
`PKPLKKLRFDIEK [G13K]` — result for “normalised enrichment score”: 0.535.
`PKPLKKLSFDIEG [R8S]`: “normalised enrichment score” 0.307.

Block 3
Target: RING finger protein unkempt homolog, zinc fingers 1-6, GST-SBP tag (UNK, Homo sapiens, UniProt Q9C0B0, residues 30-357)
Technique: RNA Bind-n-Seq
Form: RNA
Matrix: in vitro
Tested at: not given
Notes: RNA with constant flanks, human-mouse chimeric sites, ends assumed
Baseline: input RNA pool
Direction: higher = stronger binding
All sequences stand within: GGGAGUUCUACAGUCCGACGAUC … CAACAGAGGAUUGAGCAUCA
Residues (chain): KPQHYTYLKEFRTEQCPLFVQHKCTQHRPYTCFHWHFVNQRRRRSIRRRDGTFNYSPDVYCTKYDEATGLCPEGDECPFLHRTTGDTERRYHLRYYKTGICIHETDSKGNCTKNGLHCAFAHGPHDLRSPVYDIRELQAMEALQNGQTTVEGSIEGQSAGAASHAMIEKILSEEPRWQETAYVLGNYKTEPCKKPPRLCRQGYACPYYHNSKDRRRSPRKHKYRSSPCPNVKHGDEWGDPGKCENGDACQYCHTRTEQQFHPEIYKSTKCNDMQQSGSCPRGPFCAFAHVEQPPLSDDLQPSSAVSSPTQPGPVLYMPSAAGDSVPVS
With `GUUGCCAGCUUCCGGUUCCGUUGGGCUCGGUUCUCUCCUGAGCUACGGUCCCUGGCACUCUCAAUCCCGGUUGGGUAAAACAUGGAUCAGGUAAUGCAGUUUGUGGAGCCCAGCCGGCAG` the bound/input enrichment was 0.155 ratio.
The bound/input enrichment of `GUGUCCUGCUUUCAACUUAAAUCACUGCAUUUUUACUACUAUUCUGUGAGCAUCAGGACUGUAGCGCUGUGUCACCACAUGAGAGUUCAGAAGCAGCCUUUCUGUGGAGGGUGGGAAUGA` is reported as 0.323 ratio.
For `GCUCCUCCCCGCUCUGCCCCUGCCUGCCACUGGGCUGGGACCAGAAUCCAGCUUUCUUUUAAUAGUGUCAGUGUAACUGUAUCCCGUGACAUUUCAUUUUUUUUAAAUAGUGUAUUUUUU`, the bound/input enrichment was 7.75 ratio.
`GGGGAGAAACCUUACGAGUGUGUGCAGUGUGGGAAAUCCUACAGUCAAAGCUCAAAUCUCUUCAGACAUCAGAGACGACACAAUGCAGAAAAACUUUUGAAUGUUGUGAAAGUUUAAGAA` has a bound/input enrichment of 0.0869 ratio.
The bound/input enrichment of `UUGCUACUGACUCCCUGGGUCAAGUUCCUGUGGGAAUCUUACAGGCAGUGUUUGGACCUUCUUCGAAACAAUUCUAGAGUAGAGCGCCUUUACCAUGAUAUCGCCCAGCAAGCUUUCAAA` is reported as 0.205 ratio.
The bound/input enrichment of `ACCUCCCCCUCCCGCCUCACCCCACCCCCGCUUUUUGGAAAGUUUUUGGCGUUUCUUUUCCUUCCCCAGUUAGAAUUAUUACAGUUUCCCCCGCAAGGGUCUAUCGAUUCACCCUUCGGA` is reported as 19.5 ratio.
The bound/input enrichment of `UGGCGCCUCCCAUUUUUACUCGUGUUUUUAAGUGUAUUUUUAUAAGAUACAUGUAUUUGUAAUAGAUCUUUUGUUACAUAAUGCUGAAAUGCUACUGGAGAUUAUGAAAAAUGUUUCAAU` is reported as 0.675 ratio.
`AUCAAGUACUUUGGGGACAUCAUUAGUGUGGGACAGAGACUGUUGCAAGGAGCUCGGAUUUUAGGAAUUCCAGUUAUCAUAACGGAACAAUACCCCAAAGGACUUGGCAGCACCGUUCAA` has a bound/input enrichment of 0.362 ratio.
`GGAAGUACAAUGAUGGAGAUUGAUGGUGACAAAGGCAAACAAGGCGGGCCCACCUACUACAUAGACACCAAUGCCCUCCGCGUGCCCAGGGAGAACAUGGAGGCCAUUUCACCUCUAAAG` gave a bound/input enrichment of 0.338 ratio.
For `UUCAAAGAAAAGGGCAGUUCAUAAAUAUCAUAAGUAACUCUGGGGGAGGGAAAUUCUGUUCUUUUGUUUAAUUUUCCCCCAAAUGAAGCCAAAGUGUGUGUUGAAGAAGGAAGAAUGAAU`, the bound/input enrichment was 0.343 ratio.
`AUCAAAUACUUUGGGGACAUCAUUAGUGUGGGACAGAGACUGUUGCAAGGAGCUCGGAUCUUAGGGAUUCCUGUUAUCAUAACGGAACAAUACCCCAAAGGACUUGGGAGCACGGUUCAA` has a bound/input enrichment of 0.225 ratio.

Block 4
Target: RNA binding protein fox-1 homolog 2, RRM domain, GST-SBP tag (RBFOX2, Homo sapiens, UniProt O43251-10, residues 100-194)
Technique: RNA Bind-n-Seq
Form: RNA
Matrix: in vitro
Tested at: 365 nM
Notes: natural RNA segment, single round, ends assumed
Baseline: no-protein control
Direction: higher = stronger binding
All sequences stand within: GGGAGUUCUACAGUCCGACGAUC … UGGAAUUCUCGGGUGCCAA
Target sequence (chain): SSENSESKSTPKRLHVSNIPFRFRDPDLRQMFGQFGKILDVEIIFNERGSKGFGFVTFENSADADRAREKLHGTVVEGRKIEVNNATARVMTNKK
`AACCUGUCUUGUUUCAGGAGCCACCAUGUUUUUUUUUCAGUGUUAACAACAAUCAUGAUAAUUAAAUUAAAACACUAGUUUGUUCACUUGUAGGACUGCAGUUCUGAAUU` — result for “RBNS enrichment (R)”: 0.433.
`UAUUCAGAGAGAUGUUUGUCACCUUUCUUUUUGGUAGACCUGUUGGGUUGGUUCCUAUUACAUGAGCUCUUUUGCAGAUAGCACAUUCAGUAGCCUUAUCCUGUUGGUGG`: “RBNS enrichment (R)” 0.558.
Under “RBNS enrichment (R)”, `UAAGUUAUUUAAUGUUAAUAUACAUAGCUAGACUUAAGGUUUUUCAGAAAGAUGUCCAUAAUAAAUAUUAAAAACAAUGGUAUUUUUUAAAAAACUGCCUUAGGGUUUUA` is recorded as 0.499.
`GUCACCUCUGCUUGGGCUGAUUGACAGAGGUCAGUCAUUACAGCCCCUUAUGCCUCUUCCAUGGGAACAAAUACUGUGCAGAUGUUUGUAAGUUAAACAUAAGACACAGG` — result for “RBNS enrichment (R)”: 0.738.
Under “RBNS enrichment (R)”, `AGUAGGAUUGUUGAUGAAAUUGAGCGGUUGGAACACCCUCAUGGAACACUGGCAACAUGGAAUGUAGAGAGCUGAUGUCUUCCCCCUCAUAGAGGCCAUUGGCUUCCUUU` is recorded as 0.771.
`GAUAAUACAAUCUACUUACACACAUGAAUUUCUUAAAAAAAUCAAUUUAAUGCCCUAACUCUCUUAUUAAGGAGAAAUAGAAAAGAAGAAAUUUAUAAUGAAAAGAAGAU` — result for “RBNS enrichment (R)”: 0.517.
`GGCAUCUAGCCAGAGGCUGGAGACAGGUGCGCCCCUGGUGGUCACAGGCUGUGCCUUGGUUUCCUGAGCCACCUUUACUCUGCUCUAUGCCAGGCUGUGCUAGCAACACC`: “RBNS enrichment (R)” 0.488.
Under “RBNS enrichment (R)”, `GUAGAGAAAGCUAUUUUAUUCUGUAUUUUUAAAACUGUUCCGUACAAAUAAAAGCUCUCCUGGAUGUGUUCUGUUGUCAUUUGCCUCUUUCUUGGGCUGGAAUUCAAUUA` is recorded as 1.45.
`AUCCCUUUAUACAAAGAAAAUAAAAGUAAGGCAUAUAAAUUUCCUCCAGCAAGCAAAUCUUGUGGGUAAAAAAAAAAAUGUGAAUUUUAACAACCUCUAUAUUUUCACUG`: “RBNS enrichment (R)” 0.589.
For `AGCCUUGUGUGUGGCCAGGGACACCUGGCUUCCCUCCCUACUGCCAAAUAAACCCCUAUGAACCUUGGAGCCAGCUUGGACUCCUACUUGCGCCUGGACUUGGGGGGGGG`, “RBNS enrichment (R)” read 0.555.
`CACAGGGCUUUCUUCACUCUUGGUCUUCGUUUCUGAUCAAGUAAACACCAGCAGUUGUCAUUCAGUGCAGGUUUUUGUACUUCUAUAUGGUGAUUUUUUUACUUAAAAGC`: “RBNS enrichment (R)” 0.413.
Under “RBNS enrichment (R)”, `UGCCCUCCCAGGAUCUAUUCCUGGUGGGCACUGCUGUGUCUCCCCCAGAGUGGCACUCAAAGUACUAUCAAACAAUAAAAGGAAAAUGGUGCUGUUUGAAGUUACAUCCC` is recorded as 0.331.
